Values quoted from earlier work that unrelated publications cite.
Lines come from different studies, so protocols differ.
Sequence of UniProt Q92918 (whole entry, looked up): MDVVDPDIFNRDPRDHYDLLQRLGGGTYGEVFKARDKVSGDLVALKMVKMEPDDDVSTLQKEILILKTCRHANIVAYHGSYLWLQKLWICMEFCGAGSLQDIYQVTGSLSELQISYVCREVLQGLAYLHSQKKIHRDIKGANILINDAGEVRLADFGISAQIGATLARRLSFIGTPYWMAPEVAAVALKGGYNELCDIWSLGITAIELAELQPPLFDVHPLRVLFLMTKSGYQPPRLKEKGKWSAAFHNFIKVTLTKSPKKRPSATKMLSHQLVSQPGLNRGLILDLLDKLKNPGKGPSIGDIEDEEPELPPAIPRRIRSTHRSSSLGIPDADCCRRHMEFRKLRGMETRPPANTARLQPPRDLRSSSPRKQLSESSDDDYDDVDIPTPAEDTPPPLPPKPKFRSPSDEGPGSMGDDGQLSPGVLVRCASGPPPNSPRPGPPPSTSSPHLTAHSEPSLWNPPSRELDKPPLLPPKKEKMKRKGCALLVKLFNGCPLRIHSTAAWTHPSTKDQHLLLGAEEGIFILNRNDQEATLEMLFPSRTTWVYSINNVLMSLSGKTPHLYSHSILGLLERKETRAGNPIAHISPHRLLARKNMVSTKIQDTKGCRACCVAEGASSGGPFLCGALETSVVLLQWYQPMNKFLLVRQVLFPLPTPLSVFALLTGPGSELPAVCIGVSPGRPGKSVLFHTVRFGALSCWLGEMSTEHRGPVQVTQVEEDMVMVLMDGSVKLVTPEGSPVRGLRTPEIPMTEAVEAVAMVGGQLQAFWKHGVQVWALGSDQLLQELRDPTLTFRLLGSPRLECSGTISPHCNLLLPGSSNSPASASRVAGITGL

O=C(N1CCN(C(c2ccccc2)c2ccccc2)CC1)n1nnc2ccccc21  logD: 3.6
CCOC(=O)C1=C(C)NC(C)=C(C(=O)OC)C1c1cccc([N+](=O)[O-])c1 (stereo not drawn)  logD: 3.81
CCCCCCCCOC(=O)c1ccc(O)cc1  logD (pH 7.4): 3.96
O=C(OC(C(F)(F)F)C(F)(F)F)N1CCN(Cc2cccc(Oc3ccccc3)c2)CC1  logD: 5
Nc1cc(C(F)(F)F)c(-c2nc(N3CCOCC3)nc(N3CCOCC3)n2)cn1  remaining activity (Mitogen-activated protein kinase kinase kinase kinase 1 (MAP4K1, Homo sapiens, UniProt Q92918); enzyme activity; 10 µM; reference: untreated): 66%
O=C(O)c1ccc(O)cc1  logD (pH 7.4): -1.35
Cc1ccc(O)c([C@H](CCN(C(C)C)C(C)C)c2ccccc2)c1  logD: 2.38
CCOC(=O)c1ccc(O)cc1  logD (pH 7.4): 2.45
CC(C)(O/N=C(\C(=O)N[C@@H]1C(=O)N2C(C(=O)[O-])=C(C[n+]3ccccc3)CS[C@H]12)c1csc(N)n1)C(=O)O  MIC (Enterobacter cloacae; clinical isolate RKI-No_215/15): ≤ 2 µg/mL
COc1ccc([C@@H]2Sc3ccccc3N(CCN(C)C)C(=O)[C@@H]2OC(C)=O)cc1  logD: 2.22
CC1(C)S[C@@H]2[C@H](NC(=O)[C@H](N)c3ccccc3)C(=O)N2[C@H]1C(=O)O  MIC (Acinetobacter baumannii; clinical isolate RKI-No_16/16): > 16 µg/mL
Cc1cc(Nc2ccc(S(F)(F)(F)(F)F)cc2)n2ncnc2n1  logD: 3

Excerpt of the above:
CCCCCCCCOC(=O)c1ccc(O)cc1  logD (pH 7.4): 3.96
Nc1cc(C(F)(F)F)c(-c2nc(N3CCOCC3)nc(N3CCOCC3)n2)cn1  remaining activity (Mitogen-activated protein kinase kinase kinase kinase 1 (MAP4K1, Homo sapiens, UniProt Q92918); enzyme activity; 10 µM; reference: untreated): 66%
